Experimental data gathered from unrelated publications.
Each numbered part is a random draw from the data of one study; scales do not carry over between parts.

Set 1
Organism: Saccharomyces cerevisiae
Observed: binding
Technique: yeast competitive growth sequencing
Form: peptide
Setting: cyclin B2-Cln2 chimera
Reading: direction not given
| Molecule | enrichment score |
| --- | --- |
| NARRSLNFGGSTGT | -0.315 |
| NLEPNAEFDKRTEFIT | 0.516 |
| EAAPPTQEAQGETEPT | -0.253 |
| DSDSDSEGGAAGGEAD | 2.11 |
| IFNKPECGRVQRAIFQ | -0.5 |
| RNRGPKLNAMLRLGVL | -1.22 |
| VRDLSYRLVFLACCVA | -0.216 |
| IPMIAKNLMCELDE | 0.0767 |
| TLPYDLACTGGDFVLF | 0.949 |
| SGYLTDENEVGFRG | 1.09 |
| VEEEFFALRKRTPSAG | 0.897 |
| DSGFCLDSPGPLDSKE | 0.124 |
| RRRIKLPESDSSED | 2.04 |
| AIRKMREDRWAVIAKM | -1.65 |
| NRLLKLFTRCLTPLVP | -1.96 |
| ALTMEALEDPSPELME | 1.71 |
| TQERKQIHCLSEDELS | -0.588 |
| ELGMEHCEKFEISETS | 0.105 |

Set 2
Target: Interferon regulatory factor 7, full length, phosphomimetic (IRF7, Homo sapiens, UniProt Q92985, residues 1-503, S101K/S471D/S472D/S475D/S476D/S477D/S483D/S484D/S487D)
Chain of UniProt Q92985 (whole entry, unmodified, looked up): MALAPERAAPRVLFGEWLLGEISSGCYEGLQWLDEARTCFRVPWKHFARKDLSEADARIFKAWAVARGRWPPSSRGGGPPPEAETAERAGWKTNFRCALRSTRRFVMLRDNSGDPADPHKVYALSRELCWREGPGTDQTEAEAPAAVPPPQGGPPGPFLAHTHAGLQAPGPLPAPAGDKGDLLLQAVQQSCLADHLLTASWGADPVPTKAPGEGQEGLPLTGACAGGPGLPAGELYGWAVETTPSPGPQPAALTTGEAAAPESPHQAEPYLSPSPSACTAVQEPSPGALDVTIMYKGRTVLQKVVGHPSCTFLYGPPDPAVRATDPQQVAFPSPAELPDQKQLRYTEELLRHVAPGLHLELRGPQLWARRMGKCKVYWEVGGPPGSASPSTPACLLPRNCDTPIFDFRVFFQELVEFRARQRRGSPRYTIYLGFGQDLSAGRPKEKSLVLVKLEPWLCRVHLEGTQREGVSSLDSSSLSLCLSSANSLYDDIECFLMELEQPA
Technique: protein-binding microarray
Form: double-stranded DNA, one strand shown
Medium: in vitro
Tested at: 250 nM
Setting: 60-bp whole probe
Together with: salmon DNA 0.4 mg/ml
Relative to: random background probes
Reading: higher = stronger binding
Constant ends, left off below: GCCTAGCAC … GTCTTGATTCGCTTGACGCTGCTG
| Strand | log fluorescence [z-score] |
| --- | --- |
| GACGGTCTCATTCTCCTGACGTGCTAG | 0.575 |
| TTAGGACTGCTTTTCCGTTAGTGCTAG | 1.03 |
| GACGGACCGCTTCTCCTGACGTGCTAG | 0.48 |
| GACGGACTGGCGTATCGGGACGTGCTA | -0.872 |
| TCAAATTTAGAAAATGGAACTGTGCTA | 0.152 |
| TCACCTTTGCCTCTGAGACTGTGCTAG | 0.391 |
| GACGGTCTCTGTTTCGGGACGTGCTAG | 3.11 |
| GACGGACTGGGCCTGGGGACGTGCTAG | -0.893 |
| GACGTTCTCGGTATCGGGACGTGCTAG | 1.39 |
| TAAGATCTCAGTTTCGATTAGTGCTAG | 9.16 |
| TTAGGTTTCCTTTTCCTGTAGTGCTAG | 6.68 |
| GACGGTCTCGGTTTTGGGACGTGCTAG | 4.69 |
| GACGGTTTCCTTTTTCTGACGTGCTAG | 5.39 |
| AAGGAAGGACCATCCAGAGAGTGCTAG | -0.115 |
| TCAAATTTTAGTAACACACTGTGCTAG | -0.0516 |
| TTAGGTCTCCTTTACCTTTAGTGCTAG | 0.697 |
| TTAGTACTGCTTATCCTTTAGTGCTAG | 0.766 |
| GACGAAATGAGTTTCGAGACGTGCTAG | 3.93 |
| GACGGACTGCTTATTCTGACGTGCTAG | -0.464 |
| TTAGAACTGAGTTTCCATTAGTGCTAG | 2.2 |
| TCAAGTCTAGCCATTGTGACTGTGCTA | -0.543 |
| GACAATTTCAGACTGGAGACGTGCTAG | 0.0184 |
| TTAGGTTTCGGGTATCGGTCAGTGCTA | 6.81 |
| TTAGAACGGAGACTGGATTAGTGCTAG | -0.273 |

Set 3
Target: Centromere-binding protein 1, full length, N-terminal tag (CBF1, Saccharomyces cerevisiae, UniProt P17106, residues 1-351)
Chain of UniProt P17106 (whole entry, looked up): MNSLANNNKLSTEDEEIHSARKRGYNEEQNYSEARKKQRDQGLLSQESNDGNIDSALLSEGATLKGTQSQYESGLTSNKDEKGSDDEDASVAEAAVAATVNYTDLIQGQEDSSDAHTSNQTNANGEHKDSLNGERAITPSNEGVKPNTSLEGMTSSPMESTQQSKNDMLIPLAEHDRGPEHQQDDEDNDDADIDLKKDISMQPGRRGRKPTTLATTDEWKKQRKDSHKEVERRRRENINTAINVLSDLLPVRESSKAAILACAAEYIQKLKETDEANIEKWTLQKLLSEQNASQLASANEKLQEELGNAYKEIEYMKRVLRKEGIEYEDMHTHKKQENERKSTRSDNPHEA
Technique: protein-binding microarray
Form: double-stranded DNA, one strand shown
Medium: in vitro
Tested at: 0.8 µM
Setting: whole 60-bp probe, no competitor
Reading: higher = stronger binding
| Strand | fluorescence intensity |
| --- | --- |
| CTATATTACACGTGATTTAATATATCCTGTTTTTTCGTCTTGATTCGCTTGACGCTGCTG | 12800 a.u. |
| CTACGGTCGCTTACATGCGTGATATTTAGGGGATTCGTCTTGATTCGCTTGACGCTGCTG | 537 a.u. |
| GAAGTTATTGTGGATGCTGATGGCCGTGTATGGTAGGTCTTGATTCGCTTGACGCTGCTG | 525 a.u. |
| TGTACGAAGCTATAGACCGTGCCTATAGTAGTTAGGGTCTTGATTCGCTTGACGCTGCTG | 559 a.u. |
| GAATACAGAATAATGCACACGTATAAAGTACCATAGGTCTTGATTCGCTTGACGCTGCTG | 520 a.u. |
| GAACACGACCAGTCGCAGGTGAGAGTCTTGGAATAGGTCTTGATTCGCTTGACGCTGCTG | 506 a.u. |
| CTAGGATATAATATTCATGTGGATTTTTAAGAATTCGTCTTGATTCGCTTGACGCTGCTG | 541 a.u. |
| CTAAGCATGTATGATCATGATGATGCAAAAATTTTCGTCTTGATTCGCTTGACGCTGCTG | 557 a.u. |
| CTAGTTTAGTAGAACCTCGTGAAACTTACATTTTTCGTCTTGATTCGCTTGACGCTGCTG | 564 a.u. |
| GAACTCCAAACAATTCATGTCACTAAGCCCGGTTAGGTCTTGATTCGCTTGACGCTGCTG | 570 a.u. |
| CTAAGCTTGGCTCATGTCGTCACCAGTCACTAGTTCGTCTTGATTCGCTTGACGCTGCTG | 554 a.u. |
| GAACTAGCTTCAGCTGATGTGCCATGTAACGCCTAGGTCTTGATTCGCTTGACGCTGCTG | 537 a.u. |
| CTAAAGTTGAAGGTGCACGCTTGAGGCGCTCCTTTCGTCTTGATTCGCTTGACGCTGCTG | 472 a.u. |
| CTAGCCTAAAGACACAACGTGTTTGTTAATTATTTCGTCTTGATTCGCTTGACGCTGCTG | 733 a.u. |
| GAAAAGATCACGTACCATGTGCAGAATCTGAGATAGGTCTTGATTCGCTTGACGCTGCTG | 1920 a.u. |
| GAACTTAGTATACTTCATCAGATTTATGATAAATAGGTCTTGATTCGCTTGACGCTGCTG | 533 a.u. |
| CTAAAAAAACAAAAGTAGATCACAAGTTTTCCATTCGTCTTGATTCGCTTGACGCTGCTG | 561 a.u. |
| GAACATAACAGGCGTGTCACCAATGATTAATGGTAGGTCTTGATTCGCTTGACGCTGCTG | 587 a.u. |

Set 4
Target: RNA binding protein fox-1 homolog 2, RRM domain, GST-SBP tag (RBFOX2, Homo sapiens, UniProt O43251-10, residues 100-194)
Technique: RNA Bind-n-Seq
Form: RNA
Medium: in vitro
Tested at: 365 nM
Setting: natural RNA segment, single round, ends assumed
Relative to: no-protein control
Reading: higher = stronger binding
Construct (chain): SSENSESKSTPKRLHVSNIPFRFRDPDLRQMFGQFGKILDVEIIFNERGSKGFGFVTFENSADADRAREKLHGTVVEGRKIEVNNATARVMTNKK
| Strand | RBNS enrichment (R) |
| --- | --- |
| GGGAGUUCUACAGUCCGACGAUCGGCAAGGGCAGGAUGAGGCUGCACCGCUGGGAAGAGUCUAUCUAAGCUCUUGGCUUGGAGUCCCGUGUCGUCUCCACCCAGAGGAAGUUCUCCAGAGUUCACCUUUCCCUUGGAAUUCUCGGGUGCCAA | 0.31 |
| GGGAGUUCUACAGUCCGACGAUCUUUCUUUGUACUUGAAAUUUUAAGAAACCAGAAACAAGUAAAUCUGGUUGUAUCUAGAUCUUUGCUCUGUGUUUCAGUUGUGCCUUACCCUCUGUAAGAUACUGAUUCUUUGGAAUUCUCGGGUGCCAA | 0.406 |
| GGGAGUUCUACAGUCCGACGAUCAUUCGAAGGGACUGUGCACGCUCUAAAGAUCACAGUUGCUUCUAAGCCAGAUUUCAUUUCUAUUCUUGUUUUAUGUGCCAAACCCCAAAGUGCAUUGGGCCUGAAUCUCUUGGAAUUCUCGGGUGCCAA | 0.773 |
| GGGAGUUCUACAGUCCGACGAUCAGAGUUUACCAACAAAUAUUGACUGCAGUGAUUAACCAAGACAUUUUUGUUAACUAAAAAGUGAAAUAUGGGAUGGAUUCUAGAAAUGGGGUAUCUCUGUCCAUACUUCUUGGAAUUCUCGGGUGCCAA | 0.341 |
| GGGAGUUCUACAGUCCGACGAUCAUGCCUUGCACAGAACCAAUUUUUUUUAACUACUGGCCUAUUUUAAUGGUGGUAAAGAGCAUGUUUUGAAAUGCUGUGGAAACCAUCUAUGCUGACAGUCUUGCAGCAUGUGGAAUUCUCGGGUGCCAA | 1.4 |
| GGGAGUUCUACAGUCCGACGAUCAAAACCAGCGAGUGUCGUGGUGCAGGCAGGCCCUGUGGCCUGCUGGGCUGAGGGAAGUCAGAGCCCCAGGGCGCCACGAAGCAGCCACUGGGAUACCCCACCCCGCCCCGUGGAAUUCUCGGGUGCCAA | 0.317 |
| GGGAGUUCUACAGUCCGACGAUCAUGGCACGUGACUUUUAAGCAGUAGGAUUUUGCCAAGCAGAAUUUUUGAAGGCAUGAGGCCAGUGACCCAAAGCACAGGUGCAAGUGUGCCUGGAAGGCUUCCAGCCAAAUGGAAUUCUCGGGUGCCAA | 1.32 |
| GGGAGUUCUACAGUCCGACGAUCAUCUGCCAUCUUUGAACUCAUCUUUGGUGGCUAGACUGCUACGGCAGCUUCUCUGAUGGGAAAGUUCCUUUUUUGGCUUAACACUCACCCUUUCUUCACACUCACAUUUAUGGAAUUCUCGGGUGCCAA | 0.336 |
| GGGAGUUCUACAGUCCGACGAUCUUCCAGACCCAGAGUUUCGACCGCUUGGAUAAUUGAGCCAAGAAGCAAUCCCACAACUGCCUUCUCAAACACCAAAAGCAACAUCUUUUUUAAAACUUCCUAUAAUUCUCUGGAAUUCUCGGGUGCCAA | 1.06 |
| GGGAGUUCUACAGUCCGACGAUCAAAGAGAGAAUCAUCAUCAAGGCACCGUAGGUAACUCAGUGGCUGUGACCAGCUCGACUGGCGGCCACUGGCUGUUCCCAUGAGUUCAGCUGUGACGUUAGCUUCAGUGGUGGAAUUCUCGGGUGCCAA | 0.257 |
| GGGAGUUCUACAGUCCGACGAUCUGUCCGUCCUCUGGGCGGCACAAGUCCCGCAGGCUCUGUGUCUGUUAGGUGAUGGAGCCCAUUCAAGGAGCAUUUGGUGUUGGGUCAGGGUUGCCAAUAGAACACUGUGUUGGAAUUCUCGGGUGCCAA | 0.442 |
| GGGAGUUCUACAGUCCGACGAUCGGCCGAGCCUCUGUGUUGCCUUCUCCUCUGUCCUCAGACUCAGGAGGCAGGUGGCAAUCUCCUCGCCAGCAUUCCAGGCCCUCAGUUCAAUGACAUCUCUCAGAGCAUUUUGGAAUUCUCGGGUGCCAA | 0.554 |

Excerpt of the above (set 3):
| Strand | fluorescence intensity |
| --- | --- |
| GAAGTTATTGTGGATGCTGATGGCCGTGTATGGTAGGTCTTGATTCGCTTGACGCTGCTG | 525 a.u. |
| CTAAAAAAACAAAAGTAGATCACAAGTTTTCCATTCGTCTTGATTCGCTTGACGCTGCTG | 561 a.u. |
| CTAGGATATAATATTCATGTGGATTTTTAAGAATTCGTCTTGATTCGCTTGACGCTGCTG | 541 a.u. |
| CTAGCCTAAAGACACAACGTGTTTGTTAATTATTTCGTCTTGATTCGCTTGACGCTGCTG | 733 a.u. |
| CTAAGCATGTATGATCATGATGATGCAAAAATTTTCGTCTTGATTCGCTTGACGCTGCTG | 557 a.u. |
| GAACACGACCAGTCGCAGGTGAGAGTCTTGGAATAGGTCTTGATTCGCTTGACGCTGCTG | 506 a.u. |
| CTAAGCTTGGCTCATGTCGTCACCAGTCACTAGTTCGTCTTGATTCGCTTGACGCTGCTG | 554 a.u. |
| CTACGGTCGCTTACATGCGTGATATTTAGGGGATTCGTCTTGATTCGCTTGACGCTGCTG | 537 a.u. |
| GAACTAGCTTCAGCTGATGTGCCATGTAACGCCTAGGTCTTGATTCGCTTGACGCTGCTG | 537 a.u. |
| GAACATAACAGGCGTGTCACCAATGATTAATGGTAGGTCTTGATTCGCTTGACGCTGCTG | 587 a.u. |
